Measurements collected from several papers.
Compare with care: the assays were run in different laboratories. ± marks the error that the study gave.
Cell line: HeLa

| SMILES | test | setting | how to read | endpoint | result |
| --- | --- | --- | --- | --- | --- |
| CC[C@H](C)[C@@H]1NC(=O)[C@H](C)NC(=O)[C@H](C)NC(=O)[C@H]([C@@H](C)O)NC(=O)[C@H](C)NC(=O)[C@@H]2CSSC[C@@H]3NC(=O)[C@H](C(C)C)NC(=O)[C@H](CCCCN)NC(=O)[C@H](CO)NC(=O)[C@H](CCCCN)NC(=O)[C@@H]4CSSC[C@H](NC(=O)[C@H](CO)NC(=O)[C@H](CCC(=O)O)NC(=O)CNC(=O)[C@H](CSSC[C@H](NC(=O)CNC1=O)C(=O)N[C@@H](CO)C(=O)N4)NC(=O)[C@@H]1CCCN1C(=O)[C@H](Cc1ccccc1)NC(=O)CNC(=O)[C@H](CC(N)=O)NC(=O)[C@H](CCCCN)NC(=O)[C@H](Cc1ccc(O)cc1)NC3=O)C(=O)N[C@@H](C(C)C)C(=O)N[C@@H](Cc1ccc(O)cc1)C(=O)N[C@@H](CC(C)C)C(=O)N1CCC[C@H]1C(=O)N2 | resazurin | 24 h |  | CC50 | 4.1 ± 0.39 µM |
| NCCCC[C@H](NC(=O)[C@H](CCCCN)NC(=O)[C@H](Cc1ccccc1)NC(=O)[C@H](Cc1ccccc1)NC(=O)CCCc1ccc2ccc3cccc4ccc1c2c34)C(N)=O | MTT | concentration not given, 24 h, normoxia |  | cytotoxicity | not toxic |
| N=C(N)NCCC[C@@H]1NC(=O)[C@H](Cc2csc3ccccc23)NC(=O)[C@@H](Cc2ccccc2)NC(=O)[C@H](Cc2ccccc2)NC(=O)[C@H](CCC(=O)NCCOCCOCC(=O)N[C@@H](CCCCNC(=O)c2ccc3c(c2)C(=O)OC32c3ccc4cc(O)ccc4c3Oc3c2ccc2cc(O)ccc32)C(N)=O)NC(=O)[C@@H](CCCNC(=N)N)NC(=O)[C@H](CCCNC(=N)N)NC(=O)[C@@H](CCCNC(=N)N)NC1=O |  | 5.0 µM, 10% FBS | baseline: CPP12 | endosomal escape efficiency | 383 ± 49% |
| CC(C)C[C@H](NC(=O)[C@@H]1CCCN1C(=O)CCOCCOCCOCCOCCOCCOCCOCCOCCNC(=S)Nc1ccc2c(c1)C(=O)OC21c2ccc(O)cc2Oc2cc(O)ccc21)C(=O)N[C@@H](Cc1cncn1CCCCCCCCc1ccccc1)C(=O)N[C@@H](CO)C(=O)N[C@H](C(N)=O)[C@@H](C)CP(=O)(O)O | confocal microscopy | 200 µM, 7 h |  | cellular uptake | < 0.4% |
| CC(=O)N[C@@H](CC(C)C)C(=O)N[C@@H](CC(C)C)C(=O)N[C@@H](CS)C(=O)N[C@@H](CO)C(=O)N[C@H](C(=O)N1CCC[C@H]1C(=O)N[C@@H](CC(N)=O)C(=O)NCC(=O)N[C@@H](CC(C)C)C(=O)O)[C@@H](C)OP(=O)(O)O |  | 30 µM, 24 h |  | viability | 57% |
| C[C@H](NC(=O)[C@H](CCCNC(=N)N)NC(=O)[C@H](CCC(=O)O)NC(=O)[C@H](CCCNC(=N)N)NC(=O)[C@H](CCCNC(=N)N)NC(=O)[C@@H](NC(=O)[C@H](CCCNC(=N)N)NC(=O)[C@H](C)NC(=O)[C@H](CCCNC(=N)N)NC(=O)[C@H](CCC(=O)O)NC(=O)[C@@H](N)CCCNC(=N)N)[C@@H](C)O)C(=O)N[C@@H](CCCNC(=N)N)C(=O)N[C@H](C(=O)N[C@@H](CCCNC(=N)N)C(=O)N[C@@H](CCC(=O)O)C(=O)N[C@@H](CCCNC(=N)N)C(=O)N[C@@H](C)C(=O)N[C@@H](CCCNC(=N)N)C(=O)N[C@H](C(=O)N[C@@H](CCCNC(=N)N)C(=O)O)[C@@H](C)O)[C@@H](C)O | MTT | up to 100 µM, 24 h |  | cytotoxicity | not toxic |
| Oc1ccc(O)c2ccccc12 |  | 20 µM |  | cytotoxicity | not toxic |
| CN(C)c1ccc2c(c1)Oc1cc(N(C)C)ccc1C21OC(=O)c2cc(C(=O)NCCCC[C@H](NC(=O)[C@@H](N)CSSC[C@H](N)C(=O)N[C@@H](CCCCNC(=O)c3ccc4c(c3)C(=O)OC43c4ccc(N(C)C)cc4Oc4cc(N(C)C)ccc43)C(=O)N[C@@H](CCCNC(=N)N)C(=O)N[C@@H](CCCNC(=N)N)C(=O)N[C@@H](CCCNC(=N)N)C(=O)N[C@@H](CCCNC(=N)N)C(=O)N[C@@H](CCCNC(=N)N)C(=O)N[C@@H](CCCNC(=N)N)C(=O)N[C@@H](CCCNC(=N)N)C(=O)N[C@@H](CCCNC(=N)N)C(=O)NCC(N)=O)C(=O)N[C@@H](CCCNC(=N)N)C(=O)N[C@@H](CCCNC(=N)N)C(=O)N[C@@H](CCCNC(=N)N)C(=O)N[C@@H](CCCNC(=N)N)C(=O)N[C@@H](CCCNC(=N)N)C(=O)N[C@@H](CCCNC(=N)N)C(=O)N[C@@H](CCCNC(=N)N)C(=O)N[C@@H](CCCNC(=N)N)C(=O)NCC(N)=O)ccc21 |  | 5 µM, 1 h |  | SYTOX Blue-positive cells | 13% |
| CC[C@H](C)[C@@H]1NC(=O)[C@H](C)NC(=O)[C@H](C)NC(=O)[C@H]([C@@H](C)O)NC(=O)[C@H](Cc2ccccc2)NC(=O)[C@@H]2CSSC[C@@H]3NC(=O)[C@H](C(C)C)NC(=O)[C@H](CCCCN)NC(=O)[C@H](CO)NC(=O)[C@H](CCCCN)NC(=O)[C@@H]4CSSC[C@H](NC(=O)[C@H](CO)NC(=O)[C@H](CCC(=O)O)NC(=O)CNC(=O)[C@H](CSSC[C@H](NC(=O)CNC1=O)C(=O)N[C@@H](CO)C(=O)N4)NC(=O)[C@@H]1CCCN1C(=O)[C@H](Cc1ccccc1)NC(=O)CNC(=O)[C@H](CC(N)=O)NC(=O)[C@H](CCCCN)NC(=O)[C@H](Cc1ccc(O)cc1)NC3=O)C(=O)N[C@@H](C(C)C)C(=O)N[C@@H](C)C(=O)N[C@@H](CC(C)C)C(=O)N1CCC[C@H]1C(=O)N2 | resazurin | 24 h |  | CC50 | 4.27 ± 0.34 µM |
| O[C@H](COc1ccccc1)Cn1c2ccc(Br)cc2c2cc(Br)ccc21 | CellTiter-Glo | 48 h |  | GI50 | 10.3 µM |
| CC[C@H](C)[C@@H]1NC(=O)[C@H](C)NC(=O)[C@H](C)NC(=O)[C@H]([C@@H](C)O)NC(=O)[C@H](Cc2ccccc2)NC(=O)[C@@H]2CSSC[C@@H]3NC(=O)[C@H](C(C)C)NC(=O)[C@H](CCCCN)NC(=O)[C@H](CO)NC(=O)[C@H](CCCCN)NC(=O)[C@@H]4CSSC[C@H](NC(=O)[C@H](CO)NC(=O)[C@H](CCC(=O)O)NC(=O)CNC(=O)[C@H](CSSC[C@H](NC(=O)CNC1=O)C(=O)N[C@@H](CO)C(=O)N4)NC(=O)[C@@H]1CCCN1C(=O)[C@H](Cc1ccccc1)NC(=O)[C@H](C)NC(=O)[C@H](CC(N)=O)NC(=O)[C@H](CCCCN)NC(=O)[C@H](Cc1ccc(O)cc1)NC3=O)C(=O)N[C@@H](C(C)C)C(=O)N[C@@H](Cc1ccc(O)cc1)C(=O)N[C@@H](CC(C)C)C(=O)N1CCC[C@H]1C(=O)N2 | resazurin | 24 h |  | CC50 | 0.69 ± 0.02 µM |
| CC=C(C)C(=O)OC1C(O)C2OC(COC(=O)CCCCCCCCCC(CCCCC)OC3OC(C)C(OC(C)=O)C(O)C3O2)C1OC(=O)C=Cc1ccccc1 (stereo not shown) | cytotoxicity |  |  | IC50 | 14.9 nM |
| CC[C@H](C)[C@@H]1NC(=O)[C@H](C)NC(=O)[C@H](C)NC(=O)[C@H]([C@@H](C)O)NC(=O)[C@H](Cc2ccccc2)NC(=O)[C@@H]2CSSC[C@@H]3NC(=O)[C@H](C(C)C)NC(=O)[C@H](CCCCN)NC(=O)[C@H](CO)NC(=O)[C@H](CCCCN)NC(=O)[C@@H]4CSSC[C@H](NC(=O)[C@H](CO)NC(=O)[C@H](CCC(=O)O)NC(=O)CNC(=O)[C@H](CSSC[C@H](NC(=O)CNC1=O)C(=O)N[C@@H](CO)C(=O)N4)NC(=O)[C@@H]1CCCN1C(=O)[C@H](C)NC(=O)CNC(=O)[C@H](CC(N)=O)NC(=O)[C@H](CCCCN)NC(=O)[C@H](Cc1ccc(O)cc1)NC3=O)C(=O)N[C@@H](C(C)C)C(=O)N[C@@H](Cc1ccc(O)cc1)C(=O)N[C@@H](CC(C)C)C(=O)N1CCC[C@H]1C(=O)N2 | resazurin | 24 h |  | CC50 | 2.85 ± 0.1 µM |
| S=c1n(-c2ccccc2)c2c3ccccc3nc3[n+]2[n]1[Ir-3]12([S]3)([c]3cccc4ccc5ccc[n+]1c5c34)[c]1cccc3ccc4ccc[n+]2c4c13 | ICP-MS | 10 µM, 1 h, together with: endocytic or metabolic inhibitors |  | cellular uptake | decreased |
| CC[C@H](C)[C@@H]1NC(=O)[C@H](C)NC(=O)[C@H](C)NC(=O)[C@H]([C@@H](C)O)NC(=O)[C@H](Cc2ccccc2)NC(=O)[C@@H]2CSSC[C@@H]3NC(=O)[C@H](C(C)C)NC(=O)[C@H](CCCCN)NC(=O)[C@H](CO)NC(=O)[C@H](CCCCN)NC(=O)[C@@H]4CSSC[C@H](NC(=O)[C@H](CO)NC(=O)[C@H](CCC(=O)O)NC(=O)CNC(=O)[C@H](CSSC[C@H](NC(=O)CNC1=O)C(=O)N[C@@H](CO)C(=O)N4)NC(=O)[C@@H]1CCCN1C(=O)[C@H](Cc1ccccc1)NC(=O)CNC(=O)[C@H](CC(N)=O)NC(=O)[C@H](CCCCN)NC(=O)[C@H](Cc1ccc(O)cc1)NC3=O)C(=O)N[C@@H](C(C)C)C(=O)N[C@@H](Cc1ccc(O)cc1)C(=O)N[C@@H](C)C(=O)N1CCC[C@H]1C(=O)N2 | resazurin | 24 h |  | CC50 | 8.64 ± 1.21 µM |
| CCCCCCCCCCCCCC(=O)N[C@@H](CCCNC(=N)N)C(=O)N[C@@H](CCCNC(=N)N)C(=O)N[C@@H](CCCNC(=N)N)C(N)=O | MTS | 100 µM |  | cytotoxicity | toxic |

Some of these lines once more:
| SMILES | test | setting | how to read | endpoint | result |
| --- | --- | --- | --- | --- | --- |
| CC[C@H](C)[C@@H]1NC(=O)[C@H](C)NC(=O)[C@H](C)NC(=O)[C@H]([C@@H](C)O)NC(=O)[C@H](Cc2ccccc2)NC(=O)[C@@H]2CSSC[C@@H]3NC(=O)[C@H](C(C)C)NC(=O)[C@H](CCCCN)NC(=O)[C@H](CO)NC(=O)[C@H](CCCCN)NC(=O)[C@@H]4CSSC[C@H](NC(=O)[C@H](CO)NC(=O)[C@H](CCC(=O)O)NC(=O)CNC(=O)[C@H](CSSC[C@H](NC(=O)CNC1=O)C(=O)N[C@@H](CO)C(=O)N4)NC(=O)[C@@H]1CCCN1C(=O)[C@H](Cc1ccccc1)NC(=O)CNC(=O)[C@H](CC(N)=O)NC(=O)[C@H](CCCCN)NC(=O)[C@H](Cc1ccc(O)cc1)NC3=O)C(=O)N[C@@H](C(C)C)C(=O)N[C@@H](Cc1ccc(O)cc1)C(=O)N[C@@H](C)C(=O)N1CCC[C@H]1C(=O)N2 | resazurin | 24 h |  | CC50 | 8.64 ± 1.21 µM |
| CCCCCCCCCCCCCC(=O)N[C@@H](CCCNC(=N)N)C(=O)N[C@@H](CCCNC(=N)N)C(=O)N[C@@H](CCCNC(=N)N)C(N)=O | MTS | 100 µM |  | cytotoxicity | toxic |
